# Published values from different studies.
# Protocols differ between the studies behind these lines. ± marks the error that the study gave.
Compound,cell line,test,conditions,IC50
CC1(C)CCCC(C)(C2CCC3(C)C2C(O)CC2C4(C)CCC(OC(=O)/C=C\c5ccc(Cl)cc5)C(C)(C)C4C(O)CC23C)O1 (centres unmarked),Hep3B,"HRE reporter gene, inhibitor","24 h, hypoxia",6.07 ± 0.07 µM
COc1ccc(C(c2c[nH]c3ccc(Br)cc23)c2c[nH]c3ccc(Br)cc23)cc1,B16,"cell growth or viability, MTT",24 h,4.4 µM
COc1cccc(-c2ccc(Nc3ccc(CN(C)C)cc3)c(OC)c2F)c1,NCI-H358,"cell growth or viability, ATP luminescence",72 h,12.6 µM
COc1cc(CN2CCN(c3ccccc3[N+](=O)[O-])CC2)c2cc3[n+](cc2c1O)CCc1cc2c(cc1-3)OCO2,Ca-Ski,"cell growth or viability, SRB",48 h,4.67 µg/mL
O=C1/C(=C(\O)CCc2ccccc2)C(=O)[C@@]2(C(=O)OC3CCCCC3)CS[C@H](c3ccccc3)N12,MDCK,"cell growth or viability, resazurin",,15.6 µg/mL
CCCC[C@@H]1NC(=O)CN(S(C)(=O)=O)CCNC(=O)[C@H](CCCCN)NC(=O)[C@H](CC(C)C)NC(=O)[C@H](CCC(N)=O)NC(=O)[C@H](CC(C)C)NC(=O)[C@H](CCCCN)NC(=O)COC[C@H]2CCCN2C(=O)[C@H](Cc2c[nH]c3ccccc23)NC(=O)[C@H](C)NC(=O)[C@H](C(C)C)NC(=O)[C@H](C(C)C)NC1=O,NCI-H929,"viability, TO-PRO-3 staining, flow cytometry",,13.3 µM
O=C(O)Cc1ccccc1Nc1c(Cl)cccc1Cl.O=C(O)Cc1ccccc1Nc1c(Cl)cccc1Cl.c1cnc2c(c1)ccc1cccnc12.c1cnc2c(c1)ccc1cccnc12,CAL-27,"cytotoxicity, MTT",,3.87 ± 0.04 µM
O=C(/C=C/c1ccccc1)c1ccc(O)cc1,human cells,"NF-κB reporter gene, inhibitor",together with: TNF-alpha,28.2 µM
COc1cc(CC(=O)N2CC(=O)N[C@@H](Cc3ccccc3)CN(C(=O)Cc3ccc4ccccc4c3)CC(=O)N[C@@H](CCCCN)CN(C(=O)Cc3ccc4c(c3)OCO4)CC(=O)N[C@@H](CCCCN)CN(CC(N)=O)C(=O)CCSCc3ccc(cc3)C(=O)N[C@@H](CC(C)C)C2)cc(OC)c1,SK-BR-3,"western blot, item: phospho-AKT",4 h,16.9 µM
C=CC(OC(C)=O)c1cc(OC)c(OC(C)=O)c(OC)c1 (centres unmarked),HMEC,MTT,24 h,> 50 µM
CN1CCc2cc(Nc3ncc(C(F)(F)F)c(NCc4cc[nH]n4)n3)ccc2C1,GL261,"cell growth or viability, MTT",72 h,2.77 µM
[Cl][Pd-]1([Cl])[S]C(Nc2ccccc2)=N[N+]1=Cc1cccs1,MDCK,cell proliferation,,> 100 µM
Cc1ccc(NC(=O)c2c(C)oc3ccc(O)c(CN4CCCCCC4)c23)cc1,KMS-12-PE,"cell growth or viability, MTS",72 h,6.5 µM
CC1(C)Cc2c(-c3ccccc3)c(-c3ccc(Cl)cc3)c(CC(=O)NCC(=O)O)n2C1,THP-1-derived macrophages,PGI2 production,together with: LPS,> 100 µM
C[N+]1(C)CC[NH2+][Pt-2]1([OH])([OH])([Cl])[Cl],P31,"cell viability, EZ4U",96 h,63 ± 2 µM
C=CCOC(=O)[C@]12CS[C@H](c3ccccc3)N1C(=O)/C(=C(\O)CCc1ccccc1)C2=O,MDCK,"cell growth or viability, resazurin",,7.81 µg/mL
CC(C)Cc1ccc(C(C)C(=O)N/N=C/c2ccc(OCC(=O)N/N=C/c3ccc([N+](=O)[O-])cc3)cc2)cc1 (centres unmarked),U87 MG,"cytotoxicity, MTT",,36.7 ± 0.14 µM
CC(C)(C)OC(=O)NC(Cc1c[nH]c2ccccc12)C(=O)OC1CC2(C)C(CC(O)C3C(C4(C)CCCC(C)(C)O4)CCC32C)C2(C)CCC(OC(=O)C(Cc3c[nH]c4ccccc34)NC(=O)OC(C)(C)C)C(C)(C)C12 (centres unmarked),Hep3B,"HRE reporter gene, inhibitor","24 h, hypoxia",11.4 ± 0.16 µM
CCCC[C@@H]1NC(=O)CN(S(C)(=O)=O)CCNC(=O)[C@H](CCCCN)NC(=O)[C@H](CC(C)C)NC(=O)[C@H](CCCCN)NC(=O)[C@H](CC(C)C)NC(=O)[C@H](CCCCN)NC(=O)COC[C@H]2CCCN2C(=O)[C@H](Cc2c[nH]c3ccccc23)NC(=O)[C@H](C)NC(=O)[C@H](CC(C)C)NC(=O)[C@H](C(C)C)NC1=O,NCI-H929,"viability, TO-PRO-3 staining, flow cytometry",,10.6 µM
CC(C)[C@H](N)C(=O)OC1CCC2(C)C(C(O)CC3(C)C2CC(O)C2C(C4(C)CCCC(C)(C)O4)CCC23C)C1(C)C (some centres unmarked),Hep3B,"HRE reporter gene, inhibitor","24 h, hypoxia",1.51 ± 0.15 µM
N[C@@H](CCC(=O)N[C@@H](CS[Se]Cc1ccc(-c2cc(C(F)(F)F)nn2-c2ccc(S(N)(=O)=O)cc2)cc1)C(=O)NCC(=O)O)C(=O)O,UACC-903 melanoma cells,"cell viability, MTS","48 h, metastatic stage",20.6 ± 1.7 µM
C=C(C)[C@@H]1CC[C@]2(C(=O)O)CC[C@]3(C)[C@H](CC[C@@H]4[C@@]5(C)CC[C@H](O[C@@H]6O[C@@H](C)[C@H](O)[C@@H](O)[C@H]6OC)C(C)(C)[C@@H]5CC[C@]43C)[C@@H]12,DLD-1,"cell growth or viability, fluorescence",48 h,5.4 µM
COc1cc(CN2CCN(c3ccc(Cl)cc3)CC2)c2cc3[n+](cc2c1O)CCc1cc2c(cc1-3)OCO2,Ca-Ski,"cell growth or viability, SRB",48 h,6.98 µg/mL
COc1cc(-c2coc3cc(O)cc(O)c3c2=O)ccc1O,Huh-7,"cell growth or viability, MTT",24 h,> 100 µM
CN(C)c1ccc(-c2nc3ccccn3c2Nc2ccc(C(=O)NO)cc2)cc1,CAL-27,"HDAC activity, inhibitor, whole-cell",,14 µM
Cc1ccc(C(=O)OCCCn2ccc(=O)c(OCc3ccccc3)c2C)cc1,fibroblast cells,"cell viability, MTT",48 h,95 µg/mL
O=c1[nH]c2ccccc2nc1/C=C/c1ccc2ccccc2n1,HeLa 229,"cell growth or viability, MTT",72 h,> 50 µM
NC(=S)NNC(=O)c1cc2c(ccc3ccccc32)oc1=O,EA.hy 926,"cell growth or viability, SRB",72 h,31.6 µM
C=C[C@H](OC(C)=O)c1ccc(OC(C)=O)cc1,HMEC,MTT,24 h,> 50 µM
C[C@]12CC/C(=N\OCCN3CCCC3)C=C1CCC1C2CC[C@]2(C)/C(=C/c3ccccn3)CCC12 (some centres unmarked),CEM,"cytotoxicity, alamarBlue",72 h,30.4 µM
CCc1n(CC(=O)O[C@@H]2C[C@H](C)CC[C@H]2C(C)C)c2ccccc2[n+]1C,Daoy,cell viability,together with: cyclosporin A 1 µM,1.87 µM
Brc1ccc(C(c2c[nH]c3ccccc23)c2c[nH]c3ccccc23)cc1,B16,"cell growth or viability, MTT",24 h,9.9 µM
O=C(CCc1ccc(O)cc1)c1c(O)cc(O)cc1O,human cells,"NF-κB reporter gene, inhibitor",together with: TNF-alpha,40.7 µM
CC(C)C1OC(=O)C(NC(=O)c2cccc(O)c2)C(C)OC(=O)C(C(C)C)OC(=O)C(C)(C)C(=O)C(Cc2ccccc2)OC1=O (centres unmarked),PC-9/GR gefitinib-resistant,"cell viability, CCK-8",72 h,9.61 ± 0.624 µM
CCN(CC)CCO/N=C1/C=C2CCC3C(CC[C@]4(C)/C(=C/c5ccccn5)CCC34)[C@@]2(C)CC1 (some centres unmarked),CEM,"cytotoxicity, alamarBlue",72 h,23.8 µM
COc1cc(C(=O)N2CC[C@@H](O)[C@@H](N)C2)cc2nc(-c3cc4cccnc4n3CC3CC3)n(C)c12,human neutrophils,"protein citrullination, flow cytometry, item: citrullinated histone H3",together with: ionomycin 5 µM,1.1 µM
CCOC(=O)c1csc2nc(-c3cccc(NC(=O)c4cc5cc(NC(=O)c6ccco6)ccc5n4Cc4ccc(C(F)(F)F)cc4)c3)cn12,RAW264.7,"IL-6 release, inhibitor, ELISA","24 h, LPS-stimulated",4.71 µM
C#CCOc1ccc(C(=O)c2ccc(NC(=O)C(=O)NCCc3ccc(OC)cc3)cc2)cc1,NSCLC cell lines,cell viability,seven other cell lines,> 10 µM
COc1cc(C2c3cc4c(cc3C(OC3OC5COC(C)OC5C(O)C3O)C3COC(=O)C23)OCO4)cc(OC)c1OC(=O)OC1C=CCCC(C)(C(=O)NC(CC(=O)O)C(=O)O)CC1 (centres unmarked),MC-38,"cell growth or viability, MTT",24 h,10.8 µM
CC1(C)CCCC(C)(C2CCC3(C)C2C(O)CC2C4(C)CCC(O)C(C)(C)C4C(OC(=O)/C=C\c4ccccc4)CC23C)O1 (centres unmarked),Hep3B,"HRE reporter gene, inhibitor","24 h, hypoxia",2.39 ± 0.12 µM
Cc1ccc2oc(-c3c4c(N)n[nH]c(=O)c4nn3-c3ccc(NC(=O)/C=C/CN(C)C)cc3)c(C)c2c1,Ba/F3 TEL-FGFR4,cell proliferation,,< 0.001 µM
[Cl][Pt-]1([Cl])[S]C(Nc2ccccc2)=N[N+]1=Cc1cccs1,MDCK,cell proliferation,,10.8 µM
Cc1nccn1-c1nc(NN=Cc2c[nH]c3ccccc23)nc(Nc2ccc(Br)cc2)n1,SK-BR-3,"cell growth or viability, SRB",5 days,0.6 µM
COc1cccc2cc(C(=O)NNC(N)=S)c(=O)oc12,EA.hy 926,"cell growth or viability, SRB",72 h,25.8 µM
CC1(C)CCCC(C)(C2CCC3(C)C2C(O)CC2C4(C)CCC(OC(=O)c5cn(-c6ccc(Cl)cc6)nn5)C(C)(C)C4C(O)CC23C)O1 (centres unmarked),Hep3B,"HRE reporter gene, inhibitor","24 h, hypoxia",> 30 µM
Cn1cc(-c2cc(N3CCCCS3(=O)=O)ccc2N[C@H]2CC[C@H](C)CC2)c2cc[nH]c2c1=O (stereo in doubt),Light2 cells transfected with GLI2,"GLI-luciferase reporter, inhibitor, item: GLI2",,0.00043 µM
CCCC[C@@H]1NC(=O)CN(S(C)(=O)=O)CCNC(=O)[C@H](CCCCN)NC(=O)[C@H](CC(C)C)NC(=O)[C@H](CCCCN)NC(=O)[C@H](CC(C)C)NC(=O)[C@H](CCCCN)NC(=O)COC[C@H]2CCCN2C(=O)[C@H](Cc2c[nH]c3ccccc23)NC(=O)[C@H](C)NC(=O)[C@H](Cc2ccccc2)NC(=O)[C@H](C(C)C)NC1=O,NCI-H929,"viability, TO-PRO-3 staining, flow cytometry",,8.6 µM
COc1cc([C@@H]2c3cc4c(cc3[C@H](OC(=O)CCCc3ccc(NS(=O)(=O)c5ccccc5Br)cc3)[C@H]3COC(=O)[C@H]23)OCO4)cc(OC)c1OC,NCI-H446,"cell growth or viability, CCK-8",24 h,8.11 µM
COc1ccc(/C=C\C(=O)OC2CC3(C)C(CC(O)C4C(C5(C)CCCC(C)(C)O5)CCC43C)C3(C)CCC(O)C(C)(C)C23)cc1 (centres unmarked),Hep3B,"HRE reporter gene, inhibitor","24 h, hypoxia",15.6 µM
Cc1ccc2ncc(Nc3ccc(C(=O)NO)cc3)n2c1,CAL-27,"HDAC activity, inhibitor, whole-cell",,17.5 µM

# Excerpt of the above:
Compound,cell line,test,conditions,IC50
CC1(C)Cc2c(-c3ccccc3)c(-c3ccc(Cl)cc3)c(CC(=O)NCC(=O)O)n2C1,THP-1-derived macrophages,PGI2 production,together with: LPS,> 100 µM
O=c1[nH]c2ccccc2nc1/C=C/c1ccc2ccccc2n1,HeLa 229,"cell growth or viability, MTT",72 h,> 50 µM
CCCC[C@@H]1NC(=O)CN(S(C)(=O)=O)CCNC(=O)[C@H](CCCCN)NC(=O)[C@H](CC(C)C)NC(=O)[C@H](CCCCN)NC(=O)[C@H](CC(C)C)NC(=O)[C@H](CCCCN)NC(=O)COC[C@H]2CCCN2C(=O)[C@H](Cc2c[nH]c3ccccc23)NC(=O)[C@H](C)NC(=O)[C@H](Cc2ccccc2)NC(=O)[C@H](C(C)C)NC1=O,NCI-H929,"viability, TO-PRO-3 staining, flow cytometry",,8.6 µM
COc1cc([C@@H]2c3cc4c(cc3[C@H](OC(=O)CCCc3ccc(NS(=O)(=O)c5ccccc5Br)cc3)[C@H]3COC(=O)[C@H]23)OCO4)cc(OC)c1OC,NCI-H446,"cell growth or viability, CCK-8",24 h,8.11 µM
CC1(C)CCCC(C)(C2CCC3(C)C2C(O)CC2C4(C)CCC(O)C(C)(C)C4C(OC(=O)/C=C\c4ccccc4)CC23C)O1 (centres unmarked),Hep3B,"HRE reporter gene, inhibitor","24 h, hypoxia",2.39 ± 0.12 µM
COc1cc(CN2CCN(c3ccc(Cl)cc3)CC2)c2cc3[n+](cc2c1O)CCc1cc2c(cc1-3)OCO2,Ca-Ski,"cell growth or viability, SRB",48 h,6.98 µg/mL
C[C@]12CC/C(=N\OCCN3CCCC3)C=C1CCC1C2CC[C@]2(C)/C(=C/c3ccccn3)CCC12 (some centres unmarked),CEM,"cytotoxicity, alamarBlue",72 h,30.4 µM
